Experimental data of several laboratories.
Every numbered part comes from another study and shows a few of its results, in no order.
UniProt Q07912, sequence (whole entry, looked up): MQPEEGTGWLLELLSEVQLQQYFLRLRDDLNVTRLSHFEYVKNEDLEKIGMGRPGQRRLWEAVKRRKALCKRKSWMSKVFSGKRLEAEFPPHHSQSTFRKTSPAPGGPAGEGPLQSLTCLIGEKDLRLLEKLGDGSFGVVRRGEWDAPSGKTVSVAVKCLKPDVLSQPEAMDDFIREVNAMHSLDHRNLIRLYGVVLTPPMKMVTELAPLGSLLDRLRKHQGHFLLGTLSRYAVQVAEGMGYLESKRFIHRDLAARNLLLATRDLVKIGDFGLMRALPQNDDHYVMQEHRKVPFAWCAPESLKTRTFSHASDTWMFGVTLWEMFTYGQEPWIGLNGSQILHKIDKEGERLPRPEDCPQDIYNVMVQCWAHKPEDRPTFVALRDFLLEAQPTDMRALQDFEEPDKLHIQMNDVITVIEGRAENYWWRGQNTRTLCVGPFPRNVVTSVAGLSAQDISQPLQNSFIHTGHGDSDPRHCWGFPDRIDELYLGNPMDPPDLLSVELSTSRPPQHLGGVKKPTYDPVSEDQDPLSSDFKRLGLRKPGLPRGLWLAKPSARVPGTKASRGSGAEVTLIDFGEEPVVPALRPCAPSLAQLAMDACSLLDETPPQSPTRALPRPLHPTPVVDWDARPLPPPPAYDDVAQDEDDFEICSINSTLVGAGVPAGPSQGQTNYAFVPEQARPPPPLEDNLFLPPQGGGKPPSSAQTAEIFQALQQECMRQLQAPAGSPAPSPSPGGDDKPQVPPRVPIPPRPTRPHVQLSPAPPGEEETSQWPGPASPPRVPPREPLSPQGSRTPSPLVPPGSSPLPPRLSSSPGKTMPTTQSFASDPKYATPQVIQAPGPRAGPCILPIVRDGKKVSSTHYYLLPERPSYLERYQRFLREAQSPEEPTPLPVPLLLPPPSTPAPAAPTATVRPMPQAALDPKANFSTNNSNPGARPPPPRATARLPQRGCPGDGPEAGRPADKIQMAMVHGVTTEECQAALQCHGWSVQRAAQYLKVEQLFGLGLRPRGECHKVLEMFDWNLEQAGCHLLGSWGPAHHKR

Set 1
Target: Histone acetyltransferase KAT6A, winged helix 1, GST fusion (KAT6A, Homo sapiens, UniProt Q92794, residues 1-85)
Method: protein binding microarray
Molecule type: double-stranded DNA, one strand shown
Sample: in vitro
Tested at: not given
Setting: 8-mer, flanks averaged, mean of 2 arrays, mostly near background
Reference: not given
Direction: higher = stronger binding
Endpoint: E-score
Residues (chain): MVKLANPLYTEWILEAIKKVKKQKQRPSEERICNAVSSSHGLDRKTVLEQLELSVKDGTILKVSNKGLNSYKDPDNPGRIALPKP
Strand = GGAGGCCA; result = -0.143
Strand = AGACGTTC; result = -0.0836
Strand = GAGCCATA; result = -0.118
Strand = AGGGGGTC; result = -0.0818
Strand = AGCTTCCA; result = -0.223
Strand = ACACTTTA; result = -0.166
Strand = GAGTCCCA; result = -0.0572
Strand = ACGAAAGA; result = -0.029

Set 2
Target: Sox-I, HMG box (Salpingoeca helianthica)
Method: Spec-seq
Molecule type: double-stranded DNA, one strand shown
Sample: in vitro
Tested at: not given
Setting: whole probe, mean of replicates
Reference: not given
Direction: lower = stronger binding
Endpoint: relative binding energy
All sequences stand within: GAGTCGTCTCGTCAGCAC … CCGTAGAGCACTCAGGTC
Target sequence (chain): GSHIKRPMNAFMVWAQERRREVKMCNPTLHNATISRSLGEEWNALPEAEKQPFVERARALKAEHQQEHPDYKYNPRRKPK
Strand = CATGCAT; result = 0.878 ln ratio
Strand = AGGCGTT; result = 0.778 ln ratio
Strand = CATCCAT; result = 0.509 ln ratio
Strand = ACTTGTT; result = -0.997 ln ratio
Strand = CATACTG; result = 0.272 ln ratio
Strand = CATTTCG; result = 1.1 ln ratio
Strand = AATGGTT; result = -2.52 ln ratio
Strand = CATGGAG; result = 0.95 ln ratio

Set 3
Target: RING finger protein unkempt homolog, zinc fingers 1-6, SBP tag (UNK, Homo sapiens, UniProt Q9C0B0, residues 30-357)
UniProt Q9C0B0, sequence (30-357, looked up): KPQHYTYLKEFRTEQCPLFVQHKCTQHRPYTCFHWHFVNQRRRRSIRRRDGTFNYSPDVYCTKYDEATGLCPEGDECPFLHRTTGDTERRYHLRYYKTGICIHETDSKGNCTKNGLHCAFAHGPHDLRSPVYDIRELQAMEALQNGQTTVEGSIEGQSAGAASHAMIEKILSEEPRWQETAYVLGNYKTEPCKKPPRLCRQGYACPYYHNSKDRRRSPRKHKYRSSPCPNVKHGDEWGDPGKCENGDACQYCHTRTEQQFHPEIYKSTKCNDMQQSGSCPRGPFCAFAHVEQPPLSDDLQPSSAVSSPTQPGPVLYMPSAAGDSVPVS
Method: RNA Bind-n-Seq
Molecule type: RNA
Sample: in vitro
Tested at: 100 nM
Setting: RNA with constant flanks, vertebrate orthologous sites, ends assumed
Reference: input RNA pool
Direction: higher = stronger binding
Endpoint: bound/input enrichment
All sequences stand within: GGGAGUUCUACAGUCCGACGAUC … CAACAGAGGAUUGAGCAUCA
Strand = GUUGUGACCCAUUUAACAUUCACAAAAAACUAGCCAAAAAAAAUUUGCAUGUAAUUGACUUAGAUGAUGCCACUUUCCUGAGUGCAAAAUUUGGAAGACAGCUUGUACCUGGUUGGAAGC; result = 1.46 ratio
Strand = CAUGUCCUGGUUACUGUGAUACUCAUAAUAGCCACAGUUCUCACUUGUUCCAAACAGUCCUGAUGAUUGCCCAGAAAUAUCCUUCUCUUACCUGUUAUUUAUCAAUUUUUCCCAGUAUUU; result = 1.59 ratio
Strand = GAUUAGUGUCAUACCAGCAUAUUAACCUCUCGUCUGUGCACAGCUUCAAAUGUAACCGUCUAGUUAGAUUUUUAUUUAAAAUAUGAAAAACCGCUUUUCCCAAGACGUUUUUUAAAAACA; result = 1.94 ratio
Strand = UCCCUAACUUGUUCUAGCUUGUGAUCCUGCAAAGUUGGGUGAAGCACUGGUGCCAGAUACCAGAAAUUUUCAUUUCUCUAUUGCCGCUGAUCAGAGAGACAGACAUGAAAAAACAGGAAU; result = 0.342 ratio
Strand = GUGCAAGGAGAUUAUUCCAACUAGUGAAUUCAUUAACAGUAAGUUGACAGCAAAGGCAAAUCGGCAGCUUCAGGAUCCAUUAGUAAUCAUGACAGGAAACAUCCCAGCAUGGCUGACUGA; result = 0.503 ratio
Strand = GCUAGCCCAGGAUCCCUACAGGCUGGCUCAAGACGCGUACAGGUUAGGCCACGACCCCUACCGGGUAGGGCACGACCCCUAUAGACUAGCCCCCGACCCCUACAGGAUGUCCGCCAGGCC; result = 0.373 ratio
Strand = AACAAAAAAACGUUUCCACUGGGUUUUGCCUGUAAGAAAAUAAAAAUGUACCCGAGCACAUAGAGCUUUUUAACAGCACUAACCAAUGCCUUUUUAGAUGUAUUUUUGAUGUAUAUAUCU; result = 0.554 ratio
Strand = AUUUAGAAUGUUAAUAAAUUGCUCUGAGAUUCCUCAAGUCCAUUUUGUGAGAUCAGACCAUAGGUGGGUGUUGUUUCUUUUAAGUUUGUGUACUGCGUCCAAUGUUACAUUUUUAGAAGU; result = 3.52 ratio

Other studies, line by line
SMILES = CCN(CC)C(=O)c1ccc(Nc2nc(OCC3CCCCC3)c3[nH]cnc3n2)cc1; target = Activated CDC42 kinase 1 (TNK2, Homo sapiens, UniProt Q07912); observed = enzyme activity; mode = inhibitor; tested at = 0.5 µM; reference = control; endpoint = remaining activity; result = 21.4%
